{"data": "Measurements collected from several papers", "organism": "Influenza A virus", "note": "± gives the spread as reported."}
{"SMILES": "COc1cc(-c2oc3cc(O)cc(O)c3c(=O)c2O[C@@H]2O[C@H](CO[C@@H]3O[C@@H](C)[C@H](O)[C@@H](O)[C@H]3O)[C@@H](O)[C@H](OC(C)=O)[C@H]2O)ccc1O", "assay": "viral replication", "test system": "MDCK, A/Vladivostok/2/09(H1N1)", "EC50 [µM]": "285.3 ± 0.72"}
{"SMILES": "C1CCN(CC23C4CCC5C4C4C(CCC42)C53)CC1", "assay": "viral replication", "test system": "MDCK, H3N2 A/HK/7/87", "EC50 [µM]": "> 100"}
{"SMILES": "COc1cc(-c2oc3cc(O)cc(O)c3c(=O)c2O[C@@H]2O[C@H](CO[C@@H]3O[C@@H](C)[C@H](OC(C)=O)[C@@H](O)[C@H]3OC(C)=O)[C@@H](O)[C@H](O)[C@H]2O)ccc1O", "assay": "viral replication", "test system": "MDCK, A/Vladivostok/2/09(H1N1)", "EC50 [µM]": "197.7 ± 0.7"}
{"SMILES": "CCOC(=O)C1=C[C@@H](OC(CC)CC)[C@H](NC(C)=O)[C@@H](NCCCCCCC(=O)Nc2cccc3c2C(=O)N(C2CCC(=O)NC2=O)C3=O)C1 (stereo partly drawn)", "assay": "viral replication", "test system": "MDCK, H1N1", "EC50 [µM]": "1.71 ± 0.13"}
{"SMILES": "Cc1ccc(CNC23CC4CC(CC(C4)C2)C3)s1", "assay": "viral replication, plaque reduction", "test system": "MDCK, A/Udorn/72 wild-type M2", "EC50 [µM]": 9.6}
{"SMILES": "Cc1ncsc1-c1ccc([C@H](C)NC(=O)[C@@H]2C[C@@H](O)CN2C(=O)[C@@H](N)C(C)(C)C)cc1", "assay": "viral replication", "test system": "MDCK, H1N1", "EC50 [µM]": "> 50"}
{"SMILES": "COc1ccc(CNC23CC4CC(CC(C4)C2)C3)s1", "assay": "viral replication, plaque reduction", "test system": "MDCK, A/Udorn/72 wild-type M2", "EC50 [µM]": 6.8}
{"SMILES": "CCC1(CC)C2CC3CC(C2)CC1(NC)C3", "assay": "viral replication", "test system": "MDCK, A/FM/1/47 (H1N1)", "EC50 [µM]": "9.3 ± 0.3"}
{"SMILES": "CN[C@H](CC(C)C)C(=O)N[C@H]1C(=O)N[C@@H](CC(N)=O)C(=O)N[C@H]2C(=O)N[C@H]3C(=O)N[C@H](C(=O)N[C@H](C(=O)O)c4cc(O)cc(O)c4-c4cc3ccc4O)[C@H](O)c3ccc(c(Cl)c3)Oc3cc2cc(c3O)Oc2ccc(cc2Cl)[C@H]1O", "assay": "cytopathic effect, inhibitor", "test system": "MDCK, H3N2", "setting": "72 h", "EC50 [µM]": 38}
{"SMILES": "CCOC(=O)C1=C[C@@H](OC(CC)CC)[C@H](NC(C)=O)[C@@H](NCCCCCC(=O)Nc2cccc3c2C(=O)N(C2CCC(=O)NC2=O)C3=O)C1 (stereo partly drawn)", "assay": "viral replication", "test system": "MDCK, H1N1", "EC50 [µM]": "2.02 ± 0.06"}
{"SMILES": "CC(=N)NC12C3CCC4C3C3C(CCC31)C42", "assay": "viral replication", "test system": "MDCK, H1N1 A/PR/8/34", "EC50 [µM]": "> 100"}
{"SMILES": "CCOC(=O)C1=C[C@@H](OC(CC)CC)[C@H](NC(C)=O)[C@@H](NCCCCC(=O)Nc2cccc3c2C(=O)N(C2CCC(=O)NC2=O)C3=O)C1 (stereo partly drawn)", "assay": "viral replication", "test system": "MDCK, H1N1", "EC50 [µM]": "1.19 ± 0.11"}
{"SMILES": "COc1ccc(C2=C(N3CCC(O)CC3)C(C)(OC)OC2=O)cc1 (stereo not drawn)", "test system": "MDCK, H1N1 A/Weiss/43", "setting": "72 h", "EC50 [µM]": "> 100"}
{"SMILES": "C1CC2C3C4C5CCC4C24CNCC54C13", "assay": "viral replication", "test system": "A/Ishikawa/7/82 (H3N2)", "EC50 [µM]": "> 100"}
{"SMILES": "COC1=C(c2ccc(OC)cc2)C(=O)OC1(C)OC (stereo not drawn)", "test system": "MDCK, H1N1 A/Weiss/43", "setting": "72 h", "EC50 [µM]": "7.5 ± 0.9"}
{"SMILES": "CN(Cc1ccccc1)CC12C3CCC4C3C3C(CCC31)C42", "assay": "viral replication", "test system": "MDCK, H3N2 A/HK/7/87", "EC50 [µM]": "> 100"}
{"SMILES": "COc1ccc(C2=C(N3CCSCC3)C(C)(OC)OC2=O)cc1 (stereo not drawn)", "test system": "MDCK, H1N1 A/Weiss/43", "setting": "72 h", "EC50 [µM]": "25.6 ± 0.4"}
{"SMILES": "COc1cc(-c2oc3cc(O[C@@H]4O[C@@H](C)[C@H](O)[C@@H](O)[C@H]4O)cc(O)c3c(=O)c2O[C@@H]2O[C@H](CO)[C@@H](O)[C@H](O)[C@H]2OC(=O)c2cc(O)c(O)c(O)c2)ccc1O", "assay": "viral replication", "test system": "MDCK, A/Vladivostok/2/09(H1N1)", "EC50 [µM]": "259.3 ± 0.68"}
{"SMILES": "COc1c(CNC(=O)c2cc(C3CC3)nn2C)cccc1OC(F)(F)F", "assay": "viral replication", "test system": "MDCK, A/WSN/33", "EC50 [µM]": 0.025}
{"SMILES": "CN(C)C12C3CCC4C3C3C(CCC31)C42", "assay": "viral replication", "test system": "MDCK, H1N1 A/PR/8/34", "EC50 [µM]": 19}
{"SMILES": "COc1cc(-c2oc3cc(O)cc(O)c3c(=O)c2O[C@@H]2O[C@H](CO)[C@@H](O)[C@H](OC(C)=O)[C@H]2O)ccc1O", "assay": "viral replication", "test system": "MDCK, A/Vladivostok/2/09(H1N1)", "EC50 [µM]": "32.7 ± 0.075"}
{"note": "Some of these lines once more:"}
{"SMILES": "COc1cc(-c2oc3cc(O)cc(O)c3c(=O)c2O[C@@H]2O[C@H](CO)[C@@H](O)[C@H](OC(C)=O)[C@H]2O)ccc1O", "assay": "viral replication", "test system": "MDCK, A/Vladivostok/2/09(H1N1)", "EC50 [µM]": "32.7 ± 0.075"}
{"SMILES": "COc1ccc(C2=C(N3CCC(O)CC3)C(C)(OC)OC2=O)cc1 (stereo not drawn)", "test system": "MDCK, H1N1 A/Weiss/43", "setting": "72 h", "EC50 [µM]": "> 100"}
